# Experimental data of several laboratories.
# Protocols differ between the studies behind these lines. “And” joins repeats or separate records; there may be more than shown.
# CHEK2: Serine/threonine-protein kinase Chk2 (CHEK2, Homo sapiens, UniProt O96017)
# Sequence of UniProt O96017 (whole entry, unmodified, looked up): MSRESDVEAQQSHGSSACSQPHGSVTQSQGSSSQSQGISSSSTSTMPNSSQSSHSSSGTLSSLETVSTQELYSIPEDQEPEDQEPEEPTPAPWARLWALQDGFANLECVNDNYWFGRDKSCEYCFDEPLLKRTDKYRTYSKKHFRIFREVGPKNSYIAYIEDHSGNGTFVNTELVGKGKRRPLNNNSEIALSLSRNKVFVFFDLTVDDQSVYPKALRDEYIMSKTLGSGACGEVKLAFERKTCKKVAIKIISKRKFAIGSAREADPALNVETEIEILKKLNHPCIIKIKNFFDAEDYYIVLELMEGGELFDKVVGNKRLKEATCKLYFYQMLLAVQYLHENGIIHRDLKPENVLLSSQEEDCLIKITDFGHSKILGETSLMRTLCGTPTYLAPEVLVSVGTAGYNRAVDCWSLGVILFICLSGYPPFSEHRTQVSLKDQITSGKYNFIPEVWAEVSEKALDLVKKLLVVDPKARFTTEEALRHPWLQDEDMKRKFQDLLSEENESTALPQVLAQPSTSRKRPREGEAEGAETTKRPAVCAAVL
Structure (SMILES),target,test,conditions,how to read,measurement,value
COc1cc(-n2cc3cc(F)cc(C(N)=O)c3n2)cc(Cl)c1C1CC(O)(CCO)Cc2ccccc21 (stereo not shown),CHEK2,"enzyme activity, inhibitor",10 µM,,inhibition,5.78%
C=CC(=O)N1CCc2ccc(-n3c(=O)ccc4cnc5ccc(-c6cnn(C)c6)cc5c43)cc21,CHEK2,KINOMEscan,1 µM,baseline: DMSO control,remaining binding,100%
Cc1nc2c(F)cc(-c3nc(Nc4ccc(CNC(=O)CCCCCCC(=O)NO)cc4)ncc3F)cc2n1C(C)C,"CHEK2 (Homo sapiens, UniProt O96017, R145W)","enzyme activity, inhibitor",1 µM,,inhibition,64%
C=CC(=O)N1CCCC(n2c(=O)c3ncccc3n(Cc3ccc(Oc4ccccc4)cc3)c2=O)C1 (stereo not shown),CHEK2,"cell-free assay, competition with immobilised ligand",1 µM,,remaining binding,99%
Cc1ccc(-c2c(/C=C(\C#N)C(=O)NC(C)C)n(CCCO)c3ncnc(N)c23)cc1,CHEK2,"cell-free assay, competition with immobilised ligand",1 µM,,remaining binding,100%
COc1ccc(O)cc1-c1c[nH]c2ncc(-c3cncc(C(=O)N(C)C)c3)cc12,CHEK2,"binding, competition with immobilised ligand",0.2 µM,,inhibition,12.2%
NC(=O)[C@@H](O)C[C@H]1CCc2sc3ncnc(O[C@H]4CC[C@H](N5CCOCC5)CC4)c3c21,CHEK2,"enzyme activity, inhibitor",10 µM,,inhibition,8%
CC(C)=CC1OC(C)(C)C2C=C3C(=O)C(Cl)=CC(O)C3C3C(O)C4OC4C(=O)C132 (stereo not shown),CHEK2,"cell-free assay, competition with immobilised ligand",10 µM,,remaining binding,88%
C=CC(=O)Nc1cccc(-c2cnc3[nH]cc(C(=O)NC(C)(C)C)c3n2)c1,CHEK2,kinase activity,0.1 µM,,inhibition,17% and 10%
Cc1cnc2nc1Nc1cccc(c1)COC/C=C/COCc1cc(ccc1OCCN1CCOCC1)N2,CHEK2,binding,0.1 µM,,remaining binding,87%
Cc1ccc(C)c(-c2ccc3nc(NC(=O)C4CCCCC4)nn3c2)c1,CHEK2,"enzyme activity, Dundee kinase panel",10 µM,,remaining activity,76%
Nc1nc(Nc2ccccc2)sc1C(=O)c1ccccc1,CHEK2,"enzyme activity, inhibitor",10 µM,,remaining activity,27%
COc1ccc(NC(=O)Nc2ccc3c(c2)C(=O)N(C(C)CO)CC(C)C(CN(C)Cc2ccc4c(c2)OCO4)O3)cc1 (stereo not shown),CHEK2,"kinase activity, KinaseProfiler","0.03 µM, species human",baseline: control,remaining activity,97%
Cc1cccc(O[C@H]2CCC[C@@H](C(C)CNCc3ccncc3)C2)c1 (relative stereo),CHEK2,"enzyme activity, inhibitor",1 µM,,inhibition,5%
Cc1cccc(-c2ccc3nc(NC(=O)C4CCOCC4)nn3c2)c1,CHEK2,"enzyme activity, Dundee kinase panel",10 µM,,remaining activity,93%
O=C=[N][Ru-4]123([n]4c5ccc(O)cc5c5c6c(c7cc(F)c[n+]1c7c54)C(=O)NC6=O)[S+]1CC[S+]2CC[S+]3CC1 (stereo not shown),CHEK2,enzyme activity,"100 nM, human enzyme, added: 10 µM ATP",baseline: untreated,remaining activity,89%
COc1cc(Nc2nccc(-c3cnn4nc(OC)ccc34)n2)cc(C(F)(F)F)c1,CHEK2,"binding, competition with immobilised ligand",1 µM,,remaining binding,100%
O=C(Cc1ccc(OCc2ccccc2)cc1)NC1(C(=O)O)CCN(C(=O)c2ccc(-c3cccc(Cl)c3)cc2)CC1,CHEK2,"enzyme activity, inhibitor",10 µM,,activity vs control,107%
COc1c(OCCCN2CCOCC2)ccc2c1N=C(NC(=O)c1cnc(N)nc1)N1CCN=C21,CHEK2,"kinase activity, inhibitor",1 µM,baseline: untreated control,remaining activity,111%
